# Published values pooled from the literature.
# Each line is one published result; not all experiments were run side by side. “And” joins repeats or separate records; there may be more than shown. ± gives the spread as reported.
Structure (SMILES),test,system,setting,how to read,endpoint,value
C[C@H]1O[C@@H](O[C@H]2CC[C@@]3(C)[C@@H](CC[C@]4(C)[C@@H]3C=C[C@]35OC[C@@]6(CCC(C)(C)C[C@H]63)[C@@H](O)C[C@]54C)[C@]2(C)CO)[C@H](O)[C@@H](O[C@@H]2O[C@H](CO)[C@@H](O)[C@H](O)[C@H]2O)[C@H]1O,,"pair-fed control mice, no ethanol","oral, 15 mg/kg/day",,body weight change,0.5 g and 0.8 g and 1.5 g and 1 g and 1.2 g and 0.9 g
COC[C@@H](c1ccc(C(F)(F)F)cc1)N1CCN(C2(C)CCN(C(=O)c3c(C)ncnc3C)CC2)C[C@@H]1C,,"HIV-1 infected patients, plasma","15 mg, week 48, with optimized background regimen",relative to: baseline,change in HIV-1 RNA,-1.81 log10 copies/mL
CCN1CCN(Cc2ccc(Nc3ncc(F)c(-c4cc(F)c5nc6n(c5c4)[C@H](C)CCC6)n3)nc2)CC1,,human advanced solid tumours,"400 mg, phase Ia monotherapy RECIST 1.1",,progressive disease,0%
N#Cc1ccn2c(-c3ccncc3)c(-c3ccc(F)cc3)nc2c1,"kinase binding, competitor, MIB/MS competition, measured: RCK2",Candida albicans cell lysate,1 µM,relative to: DMSO,log2 fold change,-0.0948
CN[C@@H]1COc2c(S(=O)(=O)NC(=O)Nc3c4c(cc5c3CCC5)CCC4)cnn2C1,measured: IL-18,"human participants, whole blood ex vivo","300 mg twice daily, multiple doses, 48 h, IL-18, circulating, adjusted for, with: LPS/ATP",relative to: baseline,inhibition,102%
CC1(C)CCC2(CC1)N[C@@H](C(=O)N[C@@H]1CC[C@@H](C(N)=O)OC1)[C@H](c1ccnc(Cl)c1F)[C@]21C(=O)Nc2cc(Cl)ccc21,,"human, solid tumours","90 mg/day, RECIST",relative to: patients,progressive disease,30%
CO[C@H]1CC[C@H](N2C(=O)CNc3ncc(-c4ccc(C(C)(C)O)nc4)nc32)CC1,flow cytometry,"stimulated T cells, human, blood","60 mg single dose, 3 h, mean",relative to: baseline,p4EBP1 change from baseline,-37.2%
Cc1cc(/C=C2\Oc3cc(OCC4CC4)ccc3C2=O)cc(C)c1OC(C)(C)C(=O)O,,db/db mice on MCD diet,"oral, 30 mg/kg daily, 45 days",,serum HDL level,increased
C[C@H]1C[C@H]2CSC(N)=N[C@@]2(c2nc(NC(=O)c3ccc(OC(F)F)cn3)cs2)CO1,measured: Aβ1-40,"healthy adults, plasma","50 mg once daily, day 10",relative to: placebo,percent change from baseline,-87.2%
OC(CCN1CCCCC1)(c1ccccc1)C1CC2C=CC1C2 (stereo not drawn),resting-state EEG,healthy elderly humans,"oral, 4 mg, eyes closed, LS mean",,EEG Beta1-power Fz-Cz,3 µV²
CC(c1cc2ccccc2s1)N(O)C(N)=O (stereo not drawn),measured: 7-HDHA,human whole blood,"3 µM, with: Escherichia coli",,amount,27 ± 10 pg/mL blood
c1ccc(-c2n[nH]cc2-c2ccnc3ccccc23)nc1,"kinase binding, competitor, MIB/MS competition, measured: ATG1",Candida albicans cell lysate,100 nM,relative to: DMSO,log2 fold change,1.35
CCc1c(C)nc(-c2ccc(Cl)s2)nc1Nc1ccc(CC(=O)O)cc1,,"C57BL/6J mice, MCD diet","intraperitoneal, 0.3 mg/kg daily, MCD diet 6 weeks, dosed last two",relative to: vehicle,serum ALT,decreased
CC(C)[C@H](C(=O)Nc1ccc(C(=O)NO)cc1)c1ccccc1,,human,1.7 4 weeks after dosing,direction not given,"speech discrimination score, left ear",0%
C[C@H](NC(=O)c1c(C(F)F)nn(C)c1Oc1cccc(C(F)(F)F)c1)c1ccc(C(=O)O)cc1,irRECIST,"human, advanced tumours",500 mg,best overall response,progressive disease,57.1%
CN(C)C(=O)Oc1cccc([N+](C)(C)C)c1,,rat cisatracurium-induced neuromuscular block,0.00825 mg/kg,,twitch response,41.8% and 26.1% and 15.3% and 25.5% and 19.2%
CCCCC1(CCCC)CN(c2ccccc2)c2cc(SC)c(OCC(=O)N[C@@H](C(=O)NCC(=O)O)c3ccccc3)cc2S(=O)(=O)C1,measured: 7α-hydroxy-4-cholesten-3-one,"human, plasma","10 mg once daily, day 8",,plasma C4,55.9 ng/mL
COc1ncc(-c2nc3c(n2C(C)C)[C@H](c2ccc(Cl)cc2)N(c2cc(Cl)cn(C)c2=O)C3=O)c(OC)n1,International Working Group criteria,human acute myeloid leukemia patients,"oral, 20 to 30 mg, response CR, low-dose",,best overall response,0%
O=C(O)CNC(=O)Cc1ccccc1,,"ventricular cardiomyocytes, C57BL/6 mouse","dose not given, 0.08 s",,sarcomere length,1.72 µm
CC(C)[C@H](NC(=O)[C@H](Cc1ccc(O)cc1)NC(=O)[C@H](Cc1ccc(O)cc1)NC(=O)[C@@H]1CCCN1C(=O)[C@H](CCC(=O)O)NC(=O)[C@H](CCC(=O)O)NC(=O)[C@H](Cc1c[nH]c2ccccc12)NC(=O)[C@@H]1CCCN1C(=O)[C@@H](NC(=O)[C@H](CCC(N)=O)NC(=O)c1ccc2c(c1)C(=O)OC21c2ccc(O)cc2Oc2cc(O)ccc21)C(C)C)C(=O)N[C@H](C(=O)N[C@@H](CCCCN)C(=O)N[C@@H](CCCCN)C(=O)N[C@@H](CO)C(=O)N[C@@H](CO)C(=O)NCC(=O)NCC(N)=O)C(C)C,nerve trajectory,"human head and neck surgery, nerves","500 mg, very much improved",relative to: white light,share of responses,0%
Cc1cc(-c2nnc(N)nc2-c2ccc(F)cc2)cc(Cl)n1,"NanoString, measured: Canonical.STING.D.IO signature","human mCRPC, peripheral blood","dose not given, 2 or 4 weeks","relative to: baseline, direction not given",GSVA score change,0.131
C=C1CC[C@H](OCCCNC(=O)CCOCCOCCOCCOCCOCCOCCOCCOCCOCCOCCOCCOCCOCCOCCOCCOCCOCCOCCOCCOCCOCCOCCOCCOCCOCCOCCOCCOCCOCCOCCOCCOCCOCCOCCOCCOCCNC(=O)CCN2C(=O)CC(SC[C@H](NC(=O)[C@H](CCCNC(=N)N)NC(=O)[C@@H]3CCCN3C(=O)[C@H](CCC(N)=O)NC(=O)[C@H](CC(C)C)NC(=O)[C@H](CCCCN)NC(=O)[C@H](C)NC(=O)[C@@H]3CCCN3C(=O)[C@@H]3CCCN3C(=O)[C@H](CCCCN)NC(=O)[C@H](CCCCN)NC(=O)[C@H](CO)NC(=O)[C@H](CCC(=O)O)NC(=O)[C@H](CCCCN)NC(=O)[C@H](CCCNC(=N)N)NC(=O)[C@H](CCC(N)=O)NC(=O)[C@H](CCC(N)=O)NC(=O)[C@@H](NC(=O)[C@H](CCCNC(=N)N)NC(=O)[C@H](CCC(N)=O)NC(=O)[C@H](Cc3c[nH]cn3)NC(=O)[C@H](CCC(=O)O)NC(=O)[C@@H]3CCCN3C(=O)[C@H](CO)NC(=O)[C@H](CC(C)C)NC(=O)[C@H](Cc3ccccc3)NC(=O)[C@H](CNC(=O)CCCCCCC)NC(=O)[C@H](CO)NC(=O)CN)C(C)C)C(=O)O)C2=O)C/C1=C/C=C1\CCC[C@]2(C)[C@@H]([C@H](C)CCCC(C)(C)O)CC[C@@H]12 (stereo partly drawn),measured: carcass weight,"C57BL/6J mice, LLC tumour-induced cachexia",0.5 mg/kg every other day,relative to: tumour-bearing vehicle,body weight loss,6%
CSCCNc1nc(SCCC(F)(F)F)nc2c1ncn2[C@@H]1O[C@H](COP(=O)(O)OP(=O)(O)C(Cl)(Cl)P(=O)(O)O)[C@@H](O)[C@H]1O,light transmittance aggregometry,"human patients, platelet-rich plasma","dose not given, 15 min, with: ADP 20 µM",relative to: patients,patients with IPA above 90%,2.5%
CC(=O)NCC(=O)NCC(=O)N[C@H](C(=O)N[C@@H](Cc1ccc(O)cc1)C(=O)N[C@@H](CO)C(=O)N[C@H]1CSSC[C@@H](C(=O)N[C@@H](CCCNC(=N)N)C(=O)N2CCC[C@H]2C(=O)N[C@@H](CCC(N)=O)C(=O)N[C@@H](CCCNC(=N)N)C(=O)NCC(=O)NCCC(=O)N[C@@H](CCCCNC(=O)CN(CC(=O)NCCCC[C@H](NC(=O)CCNC(=O)CNC(=O)[C@H](CCCNC(=N)N)NC(=O)[C@H](CCC(N)=O)NC(=O)[C@@H]2CCCN2C(=O)[C@H](CCCNC(=N)N)NC(=O)[C@@H]2CSSC[C@H](NC(=O)[C@H](CO)NC(=O)[C@H](Cc3ccc(O)cc3)NC(=O)[C@@H](NC(=O)CNC(=O)CNC(C)=O)[C@@H](C)O)C(=O)N[C@@H](Cc3c[nH]cn3)C(=O)N[C@@H](Cc3ccccc3)C(=O)NCC(=O)N[C@@H](C)C(=O)N[C@@H](CC(C)C)C(=O)N[C@@H]([C@@H](C)O)C(=O)N[C@@H](Cc3c[nH]c4ccccc34)C(=O)N[C@@H](C(C)C)C(=O)N2)C(N)=O)C(=O)CCN)C(N)=O)NC(=O)[C@H](C(C)C)NC(=O)[C@H](Cc2c[nH]c3ccccc23)NC(=O)[C@H]([C@@H](C)O)NC(=O)[C@H](CC(C)C)NC(=O)[C@H](C)NC(=O)CNC(=O)[C@H](Cc2ccccc2)NC(=O)[C@H](Cc2c[nH]cn2)NC1=O)[C@@H](C)O,,healthy BALB/c mice,"subcutaneous, 0.08 mg/kg, 8 d, single dose",,reticulocytes,5.5%
C[C@H](Oc1ccc(Br)cc1-c1ccon1)C(=O)O,first response latency,"human, tibialis anterior muscle","200 mg, 30 Hz, single ascending dose",,difference from placebo,0.24%
Cc1noc(C)c1-c1cc(C(O)(c2ccccn2)c2ccccn2)c2nc(C3CC3)[nH]c2c1,measured: HEXIM1 expression,"human, peripheral blood","3 mg, day 8, 1604 study",,maximum induction,68%
Cn1cc(Nc2nc(N)nc(-c3cccc(-n4ccc5cc(C6CC6)cc(F)c5c4=O)c3CO)n2)cn1,"CD63 upregulation, anti-IgE-induced","human, multiple ascending dose, whole blood basophils ex vivo","300 mg twice daily, day 14, 1 h",,inhibition,94.8%
Nc1nc2cc(-c3ccc4ncc(C(=O)N5CCOCC5)n4c3)ccc2o1,"IHC, measured: phospho-S6 Ser235/236","advanced solid tumour patients, skin biopsy","200 mg or higher, sample A patients",,pS6 level,decreased
NC(=O)c1cnc2[nH]ccc2c1N[C@@H]1[C@@H]2CC3C[C@H]1C[C@@](O)(C3)C2,"CD4+ CD28+ naive T cells, flow cytometry","Caucasian humans, peripheral blood",20 mg single dose,relative to: baseline,percent change,-1.47%
COc1cc(Nc2ncc3c(n2)-c2ccc(Cl)cc2C(c2c(F)cccc2OC)=NC3)ccc1C(=O)O,,"mouse, KT-10 Wilms tumour xenograft","oral, 5.2 mg/kg, day 7",relative to: vehicle,relative tumour volume T/C,2
O=S(=O)(NCCNC/C=C/c1ccc(Br)cc1)c1cccc2cnccc12,,mouse zygotes,"20 µM, 24 h post-hCG",,embryos reaching 4-cell,0%
C[C@@H]1COCCN1c1cc([C@]2(O)C[C@H]3CC[C@@H](C2)O3)c2cnn(-c3cc[nH]n3)c2n1,,CW-2 colon xenograft mice,"10 mg/kg once daily for 7 days, day 14",,tumour growth inhibition,68.4 ± 4.9%
CCO[C@H]1CCN(Cc2c(OC)cc(C)c3[nH]ccc23)[C@H](c2ccc(C(=O)O)cc2)C1,,"PNH patients, blood","oral, 25 mg then 100 mg, week 12, mean absolute change",relative to: baseline,PNH RBC clone size,43.4%
Cn1cc(Nc2nccc(-c3ccc4c(c3)CN(C3COC3)CC[C@H]4NC(=O)c3cn(C(C)(C)C)nn3)n2)cn1,measured: growth hormone signaling,"splenic B cells, mice","30 mg/kg, IgD-activated in vivo","relative to: vehicle, direction not given",pathway activation z-score,2.71
C1=C/COCc2cc(ccc2OCCN2CCCC2)Nc2nccc(n2)-c2cccc(c2)COC/1,,"BALB/c mice rhEPO-induced polycythemia, spleen",120 mg/kg,,CD71/Ter119 cells,21.8% and 24.2% and 23% and 23.8% and 23.7% and 17.8%
N#Cc1ccc2c(-c3ccncc3)c(-c3ccc(F)cc3)nn2c1,"kinase binding, competitor, MIB/MS competition, measured: KSP1",Candida albicans cell lysate,1 µM,relative to: DMSO,log2 fold change,-0.125
